Experimental data collected from several papers.
Protocols differ between the studies behind these lines. Several values in a cell are separate wells, animals, samples, runs or records. Numbers after ± are the reported error. Converted amounts (≈) assume the structure as drawn.
UniProt P23443, sequence (whole entry, looked up): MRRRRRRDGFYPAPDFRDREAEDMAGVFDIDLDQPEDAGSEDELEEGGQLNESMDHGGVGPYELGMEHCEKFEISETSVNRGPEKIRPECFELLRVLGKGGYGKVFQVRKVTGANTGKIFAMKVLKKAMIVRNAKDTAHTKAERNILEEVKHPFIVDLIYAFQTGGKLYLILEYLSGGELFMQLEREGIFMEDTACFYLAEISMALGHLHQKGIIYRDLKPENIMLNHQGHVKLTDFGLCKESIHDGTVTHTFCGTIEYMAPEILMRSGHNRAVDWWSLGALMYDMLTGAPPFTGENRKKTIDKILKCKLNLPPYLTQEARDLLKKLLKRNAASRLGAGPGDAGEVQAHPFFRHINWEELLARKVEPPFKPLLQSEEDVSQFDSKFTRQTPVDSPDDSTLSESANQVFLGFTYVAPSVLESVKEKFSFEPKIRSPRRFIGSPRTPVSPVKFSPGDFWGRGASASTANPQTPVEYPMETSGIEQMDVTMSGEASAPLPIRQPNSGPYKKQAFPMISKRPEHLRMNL
UniProt P16234, sequence (whole entry, unmodified, looked up): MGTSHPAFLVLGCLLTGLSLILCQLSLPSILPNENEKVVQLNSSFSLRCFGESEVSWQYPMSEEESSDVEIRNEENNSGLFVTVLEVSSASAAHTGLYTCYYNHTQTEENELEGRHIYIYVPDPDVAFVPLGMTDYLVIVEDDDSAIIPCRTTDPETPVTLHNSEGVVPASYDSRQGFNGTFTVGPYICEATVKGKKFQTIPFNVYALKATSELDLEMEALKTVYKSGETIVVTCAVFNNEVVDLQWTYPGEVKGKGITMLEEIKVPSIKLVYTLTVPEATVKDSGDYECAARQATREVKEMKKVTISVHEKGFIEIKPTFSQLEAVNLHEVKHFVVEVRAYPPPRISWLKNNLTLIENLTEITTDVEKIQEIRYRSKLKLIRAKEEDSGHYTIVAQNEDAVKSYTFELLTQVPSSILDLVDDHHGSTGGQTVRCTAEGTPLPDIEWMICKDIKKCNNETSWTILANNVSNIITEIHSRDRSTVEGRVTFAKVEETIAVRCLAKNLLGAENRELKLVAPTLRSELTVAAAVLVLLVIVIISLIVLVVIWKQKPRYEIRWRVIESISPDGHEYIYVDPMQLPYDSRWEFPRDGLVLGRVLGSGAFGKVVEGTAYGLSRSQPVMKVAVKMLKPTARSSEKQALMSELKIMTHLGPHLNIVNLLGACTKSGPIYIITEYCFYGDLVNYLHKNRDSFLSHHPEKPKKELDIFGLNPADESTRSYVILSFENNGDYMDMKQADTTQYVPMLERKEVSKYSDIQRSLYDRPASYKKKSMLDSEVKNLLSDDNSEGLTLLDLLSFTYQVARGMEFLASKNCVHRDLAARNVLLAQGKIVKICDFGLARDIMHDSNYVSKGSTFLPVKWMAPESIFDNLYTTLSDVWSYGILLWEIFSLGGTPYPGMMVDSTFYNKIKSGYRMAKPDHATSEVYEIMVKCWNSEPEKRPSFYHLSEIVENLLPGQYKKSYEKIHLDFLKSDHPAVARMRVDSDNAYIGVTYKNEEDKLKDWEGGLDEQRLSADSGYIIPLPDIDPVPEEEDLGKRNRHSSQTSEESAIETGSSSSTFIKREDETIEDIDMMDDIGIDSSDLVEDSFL
UniProt P11712, sequence (whole entry, looked up): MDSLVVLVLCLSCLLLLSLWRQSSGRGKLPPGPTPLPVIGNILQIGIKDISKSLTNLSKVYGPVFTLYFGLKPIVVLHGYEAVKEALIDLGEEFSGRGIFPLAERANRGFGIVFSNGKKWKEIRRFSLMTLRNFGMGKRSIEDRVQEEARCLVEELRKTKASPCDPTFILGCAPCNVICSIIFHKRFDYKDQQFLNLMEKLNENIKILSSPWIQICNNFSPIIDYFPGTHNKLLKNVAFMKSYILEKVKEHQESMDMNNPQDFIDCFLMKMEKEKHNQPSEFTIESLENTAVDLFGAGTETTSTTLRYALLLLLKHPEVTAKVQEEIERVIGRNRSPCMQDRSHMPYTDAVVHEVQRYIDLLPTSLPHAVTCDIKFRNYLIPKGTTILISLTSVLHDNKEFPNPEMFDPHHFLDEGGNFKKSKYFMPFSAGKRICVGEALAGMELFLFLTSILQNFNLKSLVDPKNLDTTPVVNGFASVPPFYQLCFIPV

Compound	tested on	assay	test system	setting	how to read	endpoint	value
Cc1ccc(OCC(=O)N(Cc2cccs2)c2ccn[nH]2)cc1	–	in vivo micronucleus	Crl:CD-1(ICR) mice, female, bone marrow polychromatic erythrocytes	oral, 1500 mg/kg/day, 3 days	–	micronucleated PCEs	0.03 ± 0.03%
CN1CCCCC1C(=O)NC(Cc1ccc(-c2ccccc2)cc1)B(O)O (stereo not drawn)	–	–	rat, plasma	intravenous, 1 mg/kg	–	Vd	4.2 L/kg
C#Cc1c(F)ccc2cc(O)cc(-c3ncc4c(N5CC6CCC(C5)N6C(=O)OC(C)OC(=O)C(C)(C)C)nc(OC[C@@]56CCCN5C[C@H](F)C6)nc4c3F)c12 (stereo partly drawn)	–	chemical stability	simulated intestinal fluid	1 µM, 30 min	–	compound remaining	94.7%
CS(C)(=O)=Nc1ccc(-c2ccc(-c3nc4cc(O[C@@H]5CO[C@H]6[C@@H]5OC[C@H]6O)[nH]c4cc3F)cc2)cc1	PDGFRA (Homo sapiens, UniProt P16234, D842V)	enzyme activity, inhibitor	–	10 µM	–	inhibition	29%
Cc1nc2cccc(OCC(C)(C)C(=O)NC(C)C)c2c(N)c1C(=O)[O-].[Na+]	Escherichia coli	reverse mutation, plate incorporation	WP2 uvrA	0.80 mg/plate, without S9	–	revertant colonies	29 ± 4 colonies/plate
C/C(=N\OCCCN1CCCCC1)c1ccc(C(F)(F)F)cc1	–	–	rhesus monkey	dose not given, after dosing	–	QRS interval	40 ms
Cc1ccc(NS(=O)(=O)c2c(C(=O)N3CCCCCC3)c(C)n(C)c2C)c(Cl)c1	human cells	–	–	0.015 µM, 60 h	–	viability	99.4%
CN1C(=O)[C@@H]2NC(=O)[C@@H]3NC(=O)[C@@H](c4ccc(O)cc4)NC(=O)[C@H](NC(=O)C(NCc4cccc(O)c4O)c4ccc(O)cc4)Cc4c[nH]c5cc(ccc45)-c4cc3cc(c4O)Oc3ccc(cc3)C[C@H]1C(=O)N[C@@H](C(=O)O)c1ccc(O)c(c1)Oc1ccc2cc1 (stereo partly drawn)	–	–	saline	24 h, 25 °C	–	thermodynamic solubility	16.4 µg/mL (≈ 13.2 µM)
CC(=O)N[C@H](C(=O)N[C@@H](CCCC(=O)OC(C)(C)C)C(=O)N[C@@H](CCC1CCCCC1)C(=O)N[C@@H](CC(=O)O)C(=O)COC(=O)c1c(C)cccc1C)C(C)(C)C	–	–	C57BL/6N mouse, female, whole blood	intraperitoneal, dose not given, 8 h	–	blood concentration	183 µM and 309 µM
COc1ccc(-n2cc(C(=O)N3C[C@]4(OC(=O)c5ccccc5NC(C)=O)CC[C@H](OC)[C@@]56[C@@H]4C[C@@H]([C@@H]35)[C@@]3(O)C[C@H](OC)[C@H]4C[C@@H]6[C@]3(O)[C@H]4OC)nn2)cc1	–	–	Sprague-Dawley rat, plasma	intravenous, 2 mg/kg, 0.083 h	–	plasma concentration	120 ng/mL
CN1Cc2cc(Cl)ccc2-n2c(nnc2C2CCN(c3cccc([18F])n3)CC2)C1	–	–	C57BL/6 mouse male, kidney	intravenous, 3.7 MBq, 1 min	–	tissue uptake	11 ± 3.02 %ID/g
CN[C@H](CC(C)C)C(=O)N[C@H]1C(=O)N[C@@H](CC(N)=O)C(=O)N[C@H]2C(=N)N[C@H]3C(=O)N[C@H](C(=O)N[C@H](C(=O)NCCCNC(=N)N)c4cc(O)cc(O)c4-c4cc3ccc4O)[C@H](O)c3ccc(c(Cl)c3)Oc3cc2cc(c3O[C@@H]2O[C@H](CO)[C@@H](O)[C@H](O)[C@H]2O[C@H]2C[C@](C)(NCc3ccc(-c4ccc(Cl)cc4)cc3)[C@H](O)[C@H](C)O2)Oc2ccc(cc2Cl)[C@H]1O	–	–	mouse	intravenous, 10 mg/kg	–	clearance	0.69 mL/min/kg
CC[C@H](C)[C@H](NC(=O)[C@H](CCCCN)NC(=O)CNC(=O)[C@H](CC(C)C)NC(=O)[C@H](Cc1ccccc1)NC(=O)[C@H](CCCCN)NC(=O)[C@H](CO)NC(=O)[C@H](Cc1ccccc1)NC(=O)[C@H](Cc1c[nH]c2ccccc12)NC(=O)[C@H](CCC(N)=O)NC(=O)[C@@H](NC(=O)[C@H](Cc1ccccc1)NC(=O)CCCCCNC(=O)CN1CCN(CC(=O)O)CCN(CC(=O)O)CCN(CC(=O)O)CC1)C(C)C)C(=O)N[C@@H](CCC(=O)O)C(=O)N1CCC[C@H]1C(=O)N[C@@H](CC(=O)O)C(=O)N[C@H](C(=O)N[C@@H](CO)C(=O)N[C@@H](CCC(N)=O)C(=O)N[C@H](C(=O)N[C@@H](CCC(N)=O)C(=O)N[C@@H](CC(=O)O)C(=O)N1CCC[C@H]1C(=O)N[C@@H](CC(N)=O)C(=O)N[C@@H](CC(=O)O)C(=O)N[C@@H](CCC(N)=O)C(=O)N[C@@H](Cc1ccc(O)cc1)C(=O)N[C@@H](CCC(=O)O)C(=O)N1CCC[C@H]1C(=O)N[C@@H](Cc1ccccc1)C(=O)O)C(C)C)C(C)C [copper-64 labelled]	–	dynamic PET	mouse both sexes, CT26 tumour, untreated, tumour	intravenous, 100 µCi/mouse, 270 s	–	SUVmean	0.81 SUV
CC(C)C[C@@H](NC(=O)[C@@H](CCCNC(=N)N)NC(=O)[C@@H](Cc1c[nH]cn1)NC(=O)[C@@H](Cc1c[nH]c2ccccc12)NC(=O)[C@@H](Cc1c[nH]cn1)NC(=O)[C@@H](Cc1ccccc1)NC(=O)[C@H](NC(=O)[C@@H](Cc1ccc(O)cc1)NC(=O)CNC(=O)CNC(=O)CCOCCOCCOCCNC(=O)CN1CCN(CC(=O)O)CCN(CC(=O)O)CC1)[C@H](C)O)C(=O)N[C@H](CC(N)=O)C(=O)N1CCC[C@@H]1C(=O)O [gallium-68 labelled]	–	–	human male, from C57BL/6 mouse, red marrow	–	–	absorbed dose	0.00835 ± 5.77e-05 mSv/MBq
CC[C@H](C)[C@H](NC(=O)[C@H](CCCNC(=N)N)NC(=O)[C@H](CCCCN)NC(=O)[C@H](Cc1ccc(O)cc1)NC(=O)[C@H](CC(=O)O)NC(=O)[C@H](C)NC(=O)CNC(=O)CCOCCOCCOCCNC(=O)CN1CCN(CC(=O)O)CCN(CC(=O)O)CCN(CC(=O)O)CC1)C(=O)N[C@H](C(=O)N[C@@H](CC(C)C)C(=O)N[C@@H](CCCCN)C(=O)N[C@H](C(=O)N[C@@H](CC(N)=O)C(N)=O)C(C)C)[C@@H](C)O [copper-64 labelled]	–	ex vivo gamma counting	C57BL/6J male mice, B16-F10 tumour, testis	intravenous, 1.85 MBq, 5 min	–	tissue uptake	1.21 ± 0.383 %ID/g
Cc1cc(-c2ccc3ccccc3c2)nnc1NCCN1CCN(C)CC1	Cytochrome P450 2C9 (CYP2C9, Homo sapiens, UniProt P11712)	substrate	recombinant enzyme	100 nM	–	half-life	> 60 min
CC(C)[C@H]1NC(=O)C[C@H]2/C=C/CCSSC[C@@H](NC1=O)C(=O)N[C@H](Cc1cccc3ccccc13)C(=O)NCC(=O)O2	PRKACB (Homo sapiens, UniProt P22694)	enzyme activity, inhibitor	–	10 µM	–	inhibition	-7.5%
CC[C@H](C)[C@H](NC(=O)[C@H](Cc1ccc(O)cc1)NC(=O)[C@@H](NC(=O)[C@H](CCCNC(=N)N)NC(=O)[C@@H](N)CC(=O)O)C(C)C)C(=O)N[C@@H](Cc1c[nH]cn1)C(=O)N1CCC[C@H]1C(=O)O	–	–	Beagle dog both sexes, plasma	subcutaneous, 10 mg/kg/day, day 0, median	–	Tmax	30 min
CCc1nn(C)c2nc(-c3ccc(C(=O)O)cc3)nc(NCc3ccccc3)c12	–	–	NSG mice	dose not given, day 6 of treatment	–	body weight	23.9 g and 22.3 g and 23 g and 23.1 g
CC(C)[C@@H]1NC(=O)CNC(=O)[C@H](CC(N)=O)NC(=O)[C@H](CCCNC(=N)N)NC(=O)[C@H](Cc2ccc(O)cc2)NC(=O)[C@H](C(C)C)NC(=O)[C@@H](NC(=O)[C@@H](NC(=O)[C@H](CC(N)=O)NC(=O)[C@H](Cc2c[nH]c3ccccc23)NC(=O)[C@H](C)NC(=O)[C@H](Cc2ccccc2)NC(=O)CNC(=O)[C@H](CCCCN)NC(=O)[C@H](Cc2ccccc2)NC(=O)[C@H](Cc2ccccc2)NC(=O)[C@H](CCCCN)NC(=O)OCC2c3ccccc3-c3ccccc32)C(C)C)CSSC[C@@H](C(=O)N[C@@H](Cc2c[nH]cn2)C(=O)N[C@@H](CCCNC(=N)N)C(=O)N[C@@H](CCCNC(=N)N)C(=O)N[C@@H](C)C(=O)N[C@@H](CC(N)=O)C(N)=O)NC(=O)[C@H](C(C)C)NC(=O)[C@H](CCCNC(=N)N)NC1=O	–	–	ICR mice, serum	intraductal mammary, 10 mg/kg, day 5	–	total protein	52.7 ± 0.77 g/L
CC(C)(C)C(=O)OCOP(=O)(OCOC(=O)C(C)(C)C)C1CCCN(O)C1=O (stereo not drawn)	ACHN	–	–	–	–	TGI	7.97 µM
Cc1ccccc1-c1ccc(-c2nc(-c3ccc(CN(C)CCCC(=O)O)c([18F])c3)no2)cc1C(F)(F)F	–	–	rat, heart	1 h	–	tracer uptake	0.26 %ID/g
CC1COC2=C1C(=O)C(=O)c1c2ccc2c1C(OC(=O)CNC(=O)CN)CCC2(C)C (mixture of isomers)	–	–	PBS	pH 6.4, 25 °C	–	thermodynamic solubility	326 µg/mL
CN(C)CCCNC(=O)C[C@H](Cc1ccc(F)cc1)NC(=O)[C@@H](Cc1ccc(Cl)cc1Cl)NC(=O)[C@H](N)Cc1ccccc1C#N	–	metabolic stability	CD-1 mouse, liver microsomes	1 µM	–	half-life	41 min
O=C1NC2(CC2)COc2ncc(F)cc2[C@H]2COCCN2c2ccn3ncc1c3n2	–	–	Sprague-Dawley rat, male, serum	oral, 2.5 mg/kg/day, 4 weeks daily, end of recovery period	–	creatinine	26.4 ± 2.3 µmol/L
COc1ccccc1-c1n[nH]c2nc(NC3CCN(C(=O)Cc4ccc(F)cc4F)CC3)ncc12	–	bead binding, competition bead pull-down, item: LINJ.34.3160	Leishmania donovani axenic amastigote extract	10 µM	relative to: vehicle	relative abundance	1
CN(C)[C@H]1C[C@@]23CC[C@@]4(O2)C(=CC[C@]2(C)[C@@H](c5ccc6ccncc6c5)CC[C@H]24)C=C3[C@@H](O)[C@@H]1O	RPS6KB1 (Homo sapiens, UniProt P23443)	ATP probe labelling, inhibitor, KiNativ profiling	–	0.1 µM	–	inhibition	-15.5%

For quick reference, copied from above:
Compound	tested on	assay	test system	setting	how to read	endpoint	value
CN(C)CCCNC(=O)C[C@H](Cc1ccc(F)cc1)NC(=O)[C@@H](Cc1ccc(Cl)cc1Cl)NC(=O)[C@H](N)Cc1ccccc1C#N	–	metabolic stability	CD-1 mouse, liver microsomes	1 µM	–	half-life	41 min
O=C1NC2(CC2)COc2ncc(F)cc2[C@H]2COCCN2c2ccn3ncc1c3n2	–	–	Sprague-Dawley rat, male, serum	oral, 2.5 mg/kg/day, 4 weeks daily, end of recovery period	–	creatinine	26.4 ± 2.3 µmol/L
COc1ccccc1-c1n[nH]c2nc(NC3CCN(C(=O)Cc4ccc(F)cc4F)CC3)ncc12	–	bead binding, competition bead pull-down, item: LINJ.34.3160	Leishmania donovani axenic amastigote extract	10 µM	relative to: vehicle	relative abundance	1
CN(C)[C@H]1C[C@@]23CC[C@@]4(O2)C(=CC[C@]2(C)[C@@H](c5ccc6ccncc6c5)CC[C@H]24)C=C3[C@@H](O)[C@@H]1O	RPS6KB1 (Homo sapiens, UniProt P23443)	ATP probe labelling, inhibitor, KiNativ profiling	–	0.1 µM	–	inhibition	-15.5%
